Measurements collected from several papers.
± marks the error that the study gave.

Compound | cell line | test | system | setting | scale | quantity | value
C#CCN[C@@H]1C=C[C@]2(O[C@H]([C@@H](CC)C(=O)[C@@H](C)[C@@H](O)[C@H](C)[C@@H]3O[C@@H]([C@@H](CC)C(=O)O)CC[C@@H]3C)[C@@H](C)C[C@H]2C)O[C@@]12CC[C@@](C)([C@H]1CC[C@](O)(CC)[C@H](C)O1)O2 | HMLER CD24low/CD44high | cell viability, CellTiter-Blue |  | 72 h | baseline: IC50 HMLER CD24high/CD44low over CD24low/CD44high | selectivity ratio | 13.4
CC[C@H](C)[C@H](NC(=O)[C@H](Cc1ccccc1)NC(=O)[C@H](CC(=O)O)NC(=O)[C@H](CCCCN)NC(=O)[C@H](C)NC(=O)[C@H](CCCCN)NC(=O)[C@H](CC(N)=O)NC(=O)[C@H](CC(C)C)NC(=O)[C@H](Cc1c[nH]c2ccccc12)NC(=O)[C@H](CCC(=O)O)NC(=O)[C@H](CCCCN)NC(=O)[C@@H](NC(=O)CN)[C@@H](C)O)C(=O)N[C@@H](CCCCN)C(=O)N[C@@H](CCC(=O)O)C(=O)N[C@@H](CCCCN)C(=O)NCC(=O)N[C@@H](CC(C)C)C(=O)NCC(=O)N[C@@H](CCSC)C(=O)N[C@@H](CC(C)C)C(=O)N[C@@H](CO)C(=O)N[C@@H](C)C(=O)N[C@@H](C)C(=O)N[C@@H](C)C(=O)N[C@@H](CC(N)=O)C(=O)N[C@@H](C)C(=O)N[C@@H](C)C(=O)N[C@@H](CC(C)C)C(=O)N[C@@H](CC(N)=O)C(=O)O | HEK293 cells | intracellular calcium, FLIPR |  | 0.1% BSA |  | EC50 | > 100 µM
CC(C)CC(O)(CC(C)C)c1cn(C(=O)N2CCCC2)nn1 | mouse T-cells | SILAC proteomics, refers to: SKP1A |  | 1 nM, 6 h, unit not given | baseline: DMSO | protein level | 1.04 ± 0.01
Cc1ccc(Nc2ncc3c(n2)N(C)C(=O)N(c2cc(NC(=O)c4cc(-n5cnc(C)c5)cc(C(F)(F)F)c4)ccc2C)C3)cn1 | Hep3B | cell growth or viability, ATP luminescence |  | 72 h |  | GI50 | 0.153 µM
CSCC[C@H](NC(=O)[C@H](CC(C)C)NC(=O)[C@H](Cc1c[nH]cn1)NC(=O)CNC(=O)[C@@H](NC(=O)[C@H](C)NC(=O)[C@H](Cc1c[nH]c2ccccc12)NC(=O)[C@H](CCC(N)=O)NC(=O)c1ccc(NC(=O)CNC(=O)CCCCCN2C(=CC=C3CCCC(C=CC4=[N+](CCCCS(=O)(=O)[O-])c5ccc(S(=O)(=O)O)cc5C4(C)C)=C3Oc3ccc(S(=O)(=O)O)cc3)C(C)(C)c3cc(S(=O)(=O)O)ccc32)cc1)C(C)C)C(N)=O | HCC1937 | fluorescence microscopy |  | concentration not given |  | binding | no binding
CC[C@H](C)[C@H](NC(=O)[C@H](CC(C)C)NC(=O)[C@@H](NC(=O)[C@@H](NC(=O)[C@H](CCSC)NC(C)=O)[C@@H](C)CC)[C@@H](C)CC)C(=O)N[C@H](C(=O)N[C@@H](CO)C(=O)N[C@@H](Cc1ccccc1)C(=O)N1CCC[C@H]1C(=O)N[C@@H](CCCCN)C(=O)N[C@@H](Cc1c[nH]cn1)C(=O)N[C@@H](CCCCN)C(=O)N[C@@H](CC(=O)O)C(=O)N[C@@H](Cc1c[nH]c2ccccc12)C(=O)N[C@@H](CCCCN)C(=O)N[C@H](C(=O)N[C@H](C(=O)N[C@@H](CC(C)C)C(=O)N[C@H](C(=O)N[C@@H](CCCCN)C(N)=O)C(C)C)[C@@H](C)CC)C(C)C)[C@@H](C)CC | SLE patient PBMCs |  |  | dose not given |  | IL-6 production | inhibited
CC[C@@]1(O)C(=O)OCc2c1cc1n(c2=O)Cc2cc3cc(OC(=O)CCCC(=O)NCC(=O)N[C@@H](Cc4ccccc4)C(=O)N[C@@H](Cc4ccccc4)C(=O)N[C@@H](Cc4ccc(O)cc4)C(=O)NCCSSCCNC(=O)CCC(=O)N[C@@H](CCC(=O)O)C(=O)N[C@@H](CCCNC(=N)N)C(=O)NCC(=O)N[C@@H](CC(=O)O)C(=O)O)ccc3nc2-1 | HepG2 spheroids | confocal microscopy |  | 100 µM, 6 h |  | penetration depth | ~50 µm
C=CCc1cc(OC)c(OC)c(OC)c1OC | DU-145 | cell growth or viability, MTT |  | 72 h |  | GI50 | > 250 µM
CC/C=C\C/C=C\C/C=C\C/C=C\C/C=C\C/C=C\CCC(=O)Nc1ccn(C2OC(CO)C(O)C2(F)F)c(=O)n1 (stereo not shown) | UACC-257 | NCI60 screen |  |  |  | CC50 | 56.1 µM
CCCc1cc(OC)c(OC)c(OC)c1OC | T47D | cell growth or viability |  | 72 h |  | GI50 | > 250 µM
O=C(c1cccc(I)c1)N1CCN(C(=O)c2cc(Cc3n[nH]c(=O)c4ccccc34)ccc2F)CC1 [iodine-123 labelled] | HCT-116 p53-/- | cell viability, Alamar Blue |  | 4 days |  | EC50 | 0.022 µM
CNC(=O)c1cc(Oc2ccc(NC(=O)c3ccc(-c4cccc(COC(=O)CCC(=O)OC5OC6OC7(C)CCC8C(C)CCC(C5C)C68OO7)c4)cn3)cc2)ccn1 (stereo not shown) | Huh-7 | annexin V/PI flow cytometry |  | 1.25 µM, 24 h |  | apoptotic cells | 6.9%
N=C(N)NCCC[C@H](N)C(=O)NCC(=O)N[C@@H](CCC(=O)O)C(=O)O | NIH 3T3 fibroblasts |  | peptide-functionalised PEG-glass | concentration not given, 4 h |  | cell perimeter | 96 ± 17 µm
COc1cc(C)c(OC)c2c1OCO2 | A-375 | cell growth or viability, MTT |  | 72 h |  | GI50 | > 250 µM
CC1(C)CC([n+]2cc([NH-])on2)CC(C)(C)N1O | primary human trabecular meshwork cells | cGMP level increase, enzyme immunoassay |  | 30 min |  | EC50 | 20.3 µM
CCCc1cc(OC)c2c(c1)OCO2 | T47D | cell growth or viability |  | 72 h |  | GI50 | > 250 µM
CCOP(=O)(OCC)OCCCCOC(=O)CC1=C(C)C(=Cc2ccc([S+](C)[O-])cc2)c2ccc(F)cc21 (stereo not shown) | NSCLC lines A549, H23, H358 | modified MTT |  | 24 h | baseline: IC50 sulindac over IC50 compound | potency enhancement | > 12 fold
CC[C@H](C)[C@H](NC(=O)[C@H](CCC(=O)O)NC(=O)CNC(=O)[C@@H](NC(=O)[C@H](CC(C)C)NC(=O)[C@H](CC(C)C)NC(=O)[C@H](CC(C)C)NC(=O)[C@H](CC(C)C)NC(=O)[C@H](CS)NC(=O)[C@H](CO)NC(=O)[C@H](Cc1ccccc1)NC(=O)CNC(=O)[C@H](CCCNC(=N)N)NC(=O)[C@@H]1CCCN1C(=O)[C@H](C)NC(=O)[C@H](CCSC)NC(=O)CNC(=O)CNC(=O)[C@H](Cc1ccccc1)NC(=O)[C@H](CCCCN)NC(=O)[C@H](Cc1c(C)cc(O)cc1C)NC(=O)[C@H](N)CCCNC(=N)N)[C@@H](C)O)C(=O)N[C@@H](CC(=O)O)C(=O)N[C@@H](CC(C)C)C(=O)N1CCC[C@H]1C(=O)N[C@H](C(=O)N[C@@H](CCCCN)C(=O)N[C@@H](CCCNC(=N)N)C(=O)N[C@@H](CCCNC(=N)N)C(=O)N[C@@H](C)C(N)=O)C(C)C | HT-22 | western blot, refers to: p-STAT3 and STAT3 |  | 10 µM, 24 h, 37 °C, with: amyloid beta 42 2 µM | baseline: HNG | p-STAT3/STAT3 ratio | 1.3 fold
COc1c(C)cc2c(c1OC)OCO2 | A-375 | cell growth or viability, MTT |  | 72 h |  | GI50 | > 250 µM
Cc1cc(C)c(N2CCN(c3c(C)cc(C)cc3C)C2=[Se])c(C)c1.[Cl][Ag] | A2780 ADR | MTT |  |  | baseline: A2780 ADR over A2780 | resistance factor | 1
COc1cc(C)cc2c1OCO2 | A-375 | cell growth or viability, MTT |  | 72 h |  | GI50 | > 250 µM
C[C@H](NC(=O)[C@H](CCCNC(=N)N)NC(=O)[C@H](CCC(=O)O)NC(=O)[C@H](CCCNC(=N)N)NC(=O)[C@H](CCCNC(=N)N)NC(=O)[C@@H](NC(=O)[C@H](CCCNC(=N)N)NC(=O)[C@H](C)NC(=O)[C@H](CCCNC(=N)N)NC(=O)[C@H](CCC(=O)O)NC(=O)[C@@H](N)CCCNC(=N)N)[C@@H](C)O)C(=O)N[C@@H](CCCNC(=N)N)C(=O)N[C@H](C(=O)N[C@@H](CCCNC(=N)N)C(=O)N[C@@H](CCC(=O)O)C(=O)N[C@@H](CCCNC(=N)N)C(=O)N[C@@H](C)C(=O)N[C@@H](CCCNC(=N)N)C(=O)N[C@H](C(=O)N[C@@H](CCCNC(=N)N)C(=O)O)[C@@H](C)O)[C@@H](C)O | A-375 | western blot, refers to: VEGF165b |  | 25 µM |  | protein level | increased
C=C1C(=O)O[C@H]2[C@H]1CCC(C)=C1[C@H](OC(=O)c3ccc(C(F)(F)F)cc3)C[C@@](C)(O)[C@@H]12 | M9-ENL1 leukaemia cells | annexin V/7-AAD flow cytometry |  | 24 h, 5% human plasma |  | CC50 | 1.8 µM
CC[C@H](C)[C@H](NC(=O)[C@H](Cc1ccccc1)NC(=O)[C@H](CC(=O)O)NC(=O)[C@H](CCCCN)NC(=O)[C@H](C)NC(=O)[C@H](CCCCN)NC(=O)[C@H](CC(N)=O)NC(=O)[C@H](CC(C)C)NC(=O)[C@H](Cc1c[nH]c2ccccc12)NC(=O)[C@H](CCC(=O)O)NC(=O)[C@H](CCCCN)NC(=O)[C@@H](NC(=O)CNC(=O)[C@H](C)N)[C@@H](C)O)C(=O)N[C@@H](CCCCN)C(=O)N[C@@H](CCC(=O)O)C(=O)N[C@@H](CCCCN)C(=O)NCC(=O)N[C@@H](CC(C)C)C(=O)N[C@@H](CCC(=O)O)C(=O)N[C@@H](CCSC)C(=O)N[C@@H](CC(C)C)C(=O)N[C@@H](CO)C(=O)N[C@@H](C)C(=O)N[C@@H](C)C(=O)N[C@@H](C)C(=O)N[C@@H](CC(N)=O)C(=O)N[C@@H](C)C(=O)N[C@@H](C)C(=O)N[C@@H](CC(C)C)C(=O)N[C@@H](CC(N)=O)C(=O)O | F11 cells | intracellular calcium, FLIPR |  | 0.1% BSA |  | EC50 | > 100 µM
CC(C)C(C)C=CC(C)C1CCC2C1(C)CCC1C23C=CC2(CC(OC(=O)CCCCC4SCC5NC(=O)NC54)CCC12C)OO3 (stereo not shown) | T47D | cell growth or viability, ATP luminescence |  |  |  | EC50 | > 10 µM

For quick reference, copied from above:
Compound | cell line | test | system | setting | scale | quantity | value
CC1(C)CC([n+]2cc([NH-])on2)CC(C)(C)N1O | primary human trabecular meshwork cells | cGMP level increase, enzyme immunoassay |  | 30 min |  | EC50 | 20.3 µM
CSCC[C@H](NC(=O)[C@H](CC(C)C)NC(=O)[C@H](Cc1c[nH]cn1)NC(=O)CNC(=O)[C@@H](NC(=O)[C@H](C)NC(=O)[C@H](Cc1c[nH]c2ccccc12)NC(=O)[C@H](CCC(N)=O)NC(=O)c1ccc(NC(=O)CNC(=O)CCCCCN2C(=CC=C3CCCC(C=CC4=[N+](CCCCS(=O)(=O)[O-])c5ccc(S(=O)(=O)O)cc5C4(C)C)=C3Oc3ccc(S(=O)(=O)O)cc3)C(C)(C)c3cc(S(=O)(=O)O)ccc32)cc1)C(C)C)C(N)=O | HCC1937 | fluorescence microscopy |  | concentration not given |  | binding | no binding
